Published values from different studies.
A part holds a random share of what one study measured. Substitutions count along the parent as printed.

Set 1
Target: CCNE2, cyclin fold, Cln2 fusion (human)
Method: yeast growth competition, sequencing
Sample: yeast
Notes: strong parent motif
Baseline: not given
Direction: higher = stronger binding
Starting sequence: CDKN1B docking peptide (human); PSACRNLFGPVDH; partner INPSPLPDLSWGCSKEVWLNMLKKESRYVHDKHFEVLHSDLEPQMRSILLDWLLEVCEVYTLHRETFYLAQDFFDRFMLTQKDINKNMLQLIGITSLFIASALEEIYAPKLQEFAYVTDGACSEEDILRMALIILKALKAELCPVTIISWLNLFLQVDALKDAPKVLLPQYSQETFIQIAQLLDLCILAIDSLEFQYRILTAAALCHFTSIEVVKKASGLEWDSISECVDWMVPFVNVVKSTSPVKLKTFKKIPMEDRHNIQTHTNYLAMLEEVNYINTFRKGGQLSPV
| Substitution | normalised enrichment score |
| --- | --- |
| PSACRNYFGPVDH [L7Y] | 0.0417 |
| PTACRNLFGPVDH [S2T] | 1.43 |
| PSNCRNLFGPVDH [A3N] | 0.693 |
| PSACRNLFGPVAH [D12A] | 1.93 |
| PSACRNLFGPVDG [H13G] | 1.12 |
| PSACRNLFGPVDD [H13D] | 1.33 |
| PRACRNLFGPVDH [S2R] | 1.66 |
| PSACRCLFGPVDH [N6C] | 0.559 |
| PSACRNLFSPVDH [G9S] | 0.51 |
| PSACRNLFGWVDH [P10W] | 0.928 |
| PSACRNLFGPVMH [D12M] | 1.17 |
| PSACRELFGPVDH [N6E] | 0.328 |
| PSACRNLFGPWDH [V11W] | 2.32 |
| DSACRNLFGPVDH [P1D] | 0.879 |
| PSACRNLMGPVDH [F8M] | 0.188 |
| NSACRNLFGPVDH [P1N] | 2.54 |
| PSACRNLFGPVPH [D12P] | 1.71 |
| PSACRNLFGYVDH [P10Y] | 1.31 |
| ASACRNLFGPVDH [P1A] | 2.02 |
| PSACRNLFGDVDH [P10D] | 1.86 |

Set 2
Target: Sal-like protein 4, full length isoform B (SALL4, Homo sapiens, UniProt Q9UJQ4-2, residues 1-616)
Method: universal PBM
Molecule type: double-stranded DNA, one strand shown
Sample: in vitro
Tested at: not given
Notes: 8-mer, flanks averaged, mean of replicates
Direction: higher = stronger binding
| Strand | E-score |
| --- | --- |
| CCAAGTGA | -0.0497 |
| CGATCCGA | -0.223 |
| GTACCATA | 0.0965 |
| ATTCGTAC | 0.226 |
| GATTTAAC | 0.187 |
| ACATGCCG | 0.135 |
| CTGCCCGC | -0.293 |
| AATTTACC | 0.196 |
| GCGTGTAC | -0.0787 |
| ACGATGTA | 0.164 |
| AAGGCAGC | -0.203 |
| AAGTTTTG | 0.137 |
| GGGTTCAA | -0.108 |
| AAGTATTG | 0.236 |
| AAATAGTC | 0.106 |
| ACTTGCTA | 0.0093 |

Set 3
Target: Interferon regulatory factor 7, full length, phosphomimetic (IRF7, Homo sapiens, UniProt Q92985, residues 1-503, S101K/S471D/S472D/S475D/S476D/S477D/S483D/S484D/S487D)
Method: protein-binding microarray
Molecule type: double-stranded DNA, one strand shown
Sample: in vitro
Tested at: 250 nM
Notes: 60-bp whole probe
Together with: salmon DNA 0.4 mg/ml
Baseline: random background probes
Direction: higher = stronger binding
All sequences stand within: GCCTAGCAC … GTCTTGATTCGCTTGACGCTGCTG
Construct (chain): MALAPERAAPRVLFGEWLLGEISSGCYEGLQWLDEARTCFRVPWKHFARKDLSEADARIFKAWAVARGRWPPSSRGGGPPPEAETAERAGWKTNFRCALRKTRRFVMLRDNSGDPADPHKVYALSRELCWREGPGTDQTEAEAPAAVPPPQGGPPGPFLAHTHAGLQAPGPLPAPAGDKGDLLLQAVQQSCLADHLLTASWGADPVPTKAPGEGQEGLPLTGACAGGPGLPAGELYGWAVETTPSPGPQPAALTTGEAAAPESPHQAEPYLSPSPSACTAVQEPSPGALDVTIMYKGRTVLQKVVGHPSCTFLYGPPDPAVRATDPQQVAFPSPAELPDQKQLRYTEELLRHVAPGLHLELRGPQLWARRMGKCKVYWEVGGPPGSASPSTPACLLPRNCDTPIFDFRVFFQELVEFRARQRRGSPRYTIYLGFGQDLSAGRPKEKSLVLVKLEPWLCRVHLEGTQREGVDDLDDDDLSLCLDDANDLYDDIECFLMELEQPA
| Strand | log fluorescence [z-score] |
| --- | --- |
| TTAGGTTCCCTCTTCCTTTAGTGCTAG | 1.28 |
| CTGATCCTTCATTTGAAAGAGTGCTAG | 0.782 |
| TAAGGTTTCGACACTGGGTTAGTGCTA | 3.85 |
| TTAGGTTCCCTATTCCTTTAGTGCTAG | 2.24 |
| AATGAGGCACTGAGAGCAGAGTGCTAG | -1.06 |
| GACGGTTTCGACTTTCGGGTCGTGCTA | 11.2 |
| TTAGGTCTCCTTATCCTATAGTGCTAG | 0.799 |
| GACGATTTCATTCTCGAGACGTGCTAG | 1 |
| GACGGTTTCGGTCTCGGGCCGTGCTAG | 6.78 |
| CCCACCCTCAGGGAGCCTGTGTGCTAG | -0.613 |
| TTAGACATCAGTCTCGATTAGTGCTAG | 1.52 |
| ACCTAATTCACTATTACCAAGTGCTAG | 0.789 |
| TTACGTTTCCTTCTCCTTTAGTGCTAG | 2.25 |
| ACAGGACAGTCCCATCTACCGTGCTAG | -0.404 |
| AGTAGCTGGGATTACAGGCAGTGCTAG | -0.863 |
| TTAGGTATCCTTATCCTATAGTGCTAG | 0.768 |
| CATTGCCTATTTTTCACCTGGTGCTAG | 0.894 |
| GAGGATTTCGGGTTTCGAGACGTGCTA | 3.44 |
| TTAGATTTCGGGACTCGATTAGTGCTA | 1.27 |
| TTAGATTTCAGTTTGGATTAGTGCTAG | 1.28 |
| TCACCCTTGCTTTCCAAACTGTGCTAG | 0.429 |
| TTAGAACTAGGGACTGGATTAGTGCTA | 0.12 |
| TATGGTATGCTCATGACAAAGTGCTAG | -0.242 |
| TTTTTTTTTTCCCTGAAAAAGTGCTAG | 1.88 |

Set 4
Target: RING finger protein unkempt homolog, zinc fingers 1-6, GST-SBP tag (UNK, Homo sapiens, UniProt Q9C0B0, residues 30-357)
Chain of UniProt Q9C0B0 (30-357, looked up): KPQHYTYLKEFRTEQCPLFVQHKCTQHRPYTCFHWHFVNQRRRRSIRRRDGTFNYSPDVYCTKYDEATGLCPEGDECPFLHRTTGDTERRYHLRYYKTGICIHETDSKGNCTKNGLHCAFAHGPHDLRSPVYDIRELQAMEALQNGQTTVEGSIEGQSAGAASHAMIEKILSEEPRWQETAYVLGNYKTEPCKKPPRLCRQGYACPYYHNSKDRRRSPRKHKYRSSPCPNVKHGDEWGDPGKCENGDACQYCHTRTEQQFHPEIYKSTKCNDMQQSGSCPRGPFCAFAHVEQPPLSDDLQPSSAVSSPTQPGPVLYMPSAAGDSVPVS
Method: RNA Bind-n-Seq
Molecule type: RNA
Sample: in vitro
Tested at: not given
Notes: RNA with constant flanks, human and mouse sites, ends assumed
Baseline: input RNA pool
Direction: higher = stronger binding
| Strand | bound/input enrichment |
| --- | --- |
| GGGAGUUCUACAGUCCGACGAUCUUGCUAUGCAACUUUUACAGAUUCUGGAACCGAAGAUGUUUCGCUAUGCUCACAAAUUGGAGGUUCAGAGAACAGAUGGAGUACUCAGCCAGCUGUCUCCUCUACCACAUCUCUAUUCUGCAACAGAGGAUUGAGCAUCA | 0.0619 ratio |
| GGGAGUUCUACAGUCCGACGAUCAUUCAGAAUCAUUUUGUGGACGAAUAUGAUCCAACAAUAGAGGAUUCCUACAGGAAGCAAGUAGUAAUUGAUGGAGAAACCUGUCUCUUGGAUAUUCUCGACACAGCAGGUCAAGAGGAGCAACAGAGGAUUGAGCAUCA | 1 ratio |
| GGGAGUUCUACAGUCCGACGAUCCCCACCUUGGAACAUAGUAGCUUGUUCAGUGGUUCUUACUCCAGCCUUUCUCCAAACCCUCUUAAUUCUAGAGCAGUUGAAGACAUCUCUUCAUCGAGGACUAACCCCUACAGUUAUGCACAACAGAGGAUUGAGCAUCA | 0.508 ratio |
| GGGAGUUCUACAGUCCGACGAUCGGACCACAGGGGGGUCCUGUUCUGAACACAGGCCACCCACUGGGUGUGAACUCGGAUCCCUUCCUUAUGGCGGCCGGUUCUCUUGGUGGAAAUCUGACCCCAUUUCCAAGGAACCCAUCUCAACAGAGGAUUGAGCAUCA | 0.0406 ratio |
| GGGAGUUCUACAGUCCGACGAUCGCUGCCCAGAAGGCAAAGCCAGUUGCUACUGCUCCUAUUCCUGGUACUCCAUGGUGUGUCGUUUGGACUGGUGAUGAGCGGGUCUUCUUUUAUAAUCCCACCACUCGUCUUUCUAUGUGGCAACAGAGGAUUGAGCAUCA | 0.107 ratio |
| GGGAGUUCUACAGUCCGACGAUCAUGGACUUACCAUUAAAUAUGAUACCAGCACAGAUUUUCCAGGAAAAGCUGCAGUGCUUUUUAGGUCAGCCAGUCUCUUUGACAAAAAAAAAUGAAAAGGGCUCAAAAUAUAAGCAAUUUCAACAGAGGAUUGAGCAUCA | 0.796 ratio |
| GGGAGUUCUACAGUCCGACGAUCAGUCCAAUAUCAAGCAUAUCUGCAGAUUCUUUCUAUGCAGAUAUUGAUCACCAUACUCCACGAAAUUAUGUCCUAAUUGACGACAUUGGAGAGAUCACCAAAGGAACAGCGGCAUUAAGCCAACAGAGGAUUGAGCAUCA | 0.235 ratio |
| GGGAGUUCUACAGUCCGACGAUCAUUUUACAAGUAAAAUCAACUAAAGGGAAAGUUGAGGUAUUCUGCAGCCAGAGACUUAGAAACGCUGUGUGGACUUGUCAUGAGUGGUCAAGGUGAUGGGCUAUAGUGUCAGUUAAGAGUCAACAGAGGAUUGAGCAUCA | 1.27 ratio |
| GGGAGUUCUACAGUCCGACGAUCUCUAAGGAAGCACAGAUAAGAGAAACUGAAACGUUUUCAGAUUCAUCUCCAAUUGAAAUUAUAGAUGAGUUCCCUACAUUGAUCAGUUCUAAAACUGAUUCAUUUUCUAAAUUAGCCAGGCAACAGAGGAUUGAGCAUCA | 0.795 ratio |
| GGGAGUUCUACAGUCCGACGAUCAGCAUGUUUAUAAUGUGCGCAGGACAAGCUUGAGAAUGGUCAUUGUGGUUAAUGUGCUGGUUAGUUGACGUUAUGACUACUUUAAGGAUUGUGACACACUCCUACUGAAAAACCUCAGUGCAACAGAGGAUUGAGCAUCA | 0.152 ratio |
| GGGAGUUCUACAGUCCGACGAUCCAGAGGAAGCAGCCGAUCGGGCCGGAGGACGUGCUGGGGCUGCAGCGGAUCACCGGUGACUACCUCUGCUCCCCUGAGGAGAAUAUCUACAAGAUCGACUUUGUCAGGUUUAAGAUUCGGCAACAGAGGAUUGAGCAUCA | 0.106 ratio |

Set 5
Target: ABI1, truncated, D143A, DHFR fusion (Arabidopsis thaliana)
Method: DHFR PCA, deep sequencing
Sample: yeast
Notes: methotrexate growth selection, single substitutions
Together with: (+)-ABA 0.39 µM
Baseline: wild-type fitted maximum
Direction: higher = stronger binding
Starting sequence: PYL1, truncated, DHFR fusion (Arabidopsis thaliana); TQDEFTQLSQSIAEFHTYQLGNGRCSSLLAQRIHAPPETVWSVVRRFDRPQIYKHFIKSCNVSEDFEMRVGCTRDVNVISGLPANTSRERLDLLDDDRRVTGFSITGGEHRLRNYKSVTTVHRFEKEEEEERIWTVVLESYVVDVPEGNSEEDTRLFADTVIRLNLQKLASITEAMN
| Substitution | relative binding score [%] |
| --- | --- |
| Y53T | -16.4 |
| T135Y | -15.6 |
| L138V | -5.49 |
| R123M | 18.5 |
| S171C | 26.1 |
| G148L | -14.8 |
| K126C | 61.1 |
| S59L | -2.94 |
| L94T | -7.42 |
| V62D | -6.83 |
| K168T | 37.8 |
| H110I | 9.12 |
| E64V | 20 |
| L29G | -3.97 |
| N165I | -24.4 |
| G107P | -15.7 |

Repeated from above (set 1):
| Substitution | normalised enrichment score |
| --- | --- |
| PSACRNYFGPVDH [L7Y] | 0.0417 |
| PTACRNLFGPVDH [S2T] | 1.43 |
| PSNCRNLFGPVDH [A3N] | 0.693 |
| PSACRNLFGPVAH [D12A] | 1.93 |
| PSACRNLFGPVDG [H13G] | 1.12 |
| PSACRNLFGPVDD [H13D] | 1.33 |
| PRACRNLFGPVDH [S2R] | 1.66 |
| PSACRCLFGPVDH [N6C] | 0.559 |
| PSACRNLFSPVDH [G9S] | 0.51 |
| PSACRNLFGWVDH [P10W] | 0.928 |
| PSACRNLFGPVMH [D12M] | 1.17 |
